Measured values pooled from the literature.
Lines come from different studies, so protocols differ. ± gives the spread as reported.

SMILES | assay | test system | conditions | how to read | quantity | result
CCc1ccc(CC/C=C/c2ccc3c(c2)C(=O)CC3)cc1 | – | Sprague-Dawley rat, male | oral, 30 mg/kg/day, 14 days | – | Phosphorus | 2.86 mM
COc1ccc2c(c1)CN[C@@H](C(=O)N[C@H](CN1CC[C@@](C)(c3cccc(O)c3)[C@@H](C)C1)C(C)C)C2 | – | Sprague-Dawley rat, brain | intraperitoneal, 5 mg/kg | – | AUCtotal | 1850 ng·h/g
CC(C)[C@@H]1NC(=O)CNC(=O)[C@H](CC(N)=O)NC(=O)[C@H](CCCNC(=N)N)NC(=O)[C@H](Cc2ccc(O)cc2)NC(=O)[C@H](C(C)C)NC(=O)[C@@H](NC(=O)[C@@H](NC(=O)[C@H](CC(N)=O)NC(=O)[C@H](Cc2c[nH]c3ccccc23)NC(=O)[C@H](C)NC(=O)[C@H](Cc2ccccc2)NC(=O)CN)C(C)C)CSSC[C@@H](C(=O)N[C@@H](Cc2cnc[nH]2)C(=O)N[C@@H](CCCNC(=N)N)C(=O)N[C@@H](CCCNC(=N)N)C(=O)N[C@@H](C)C(=O)N[C@@H](CC(N)=O)C(N)=O)NC(=O)[C@H](C(C)C)NC(=O)[C@H](CCCNC(=N)N)NC1=O | – | ICR mice, blood | intraductal mammary, 5 mg/kg, day 5 | – | platelet distribution width | 15.9 ± 0.57%
COc1cc2c(Oc3ccc4[nH]c(C)cc4c3F)ccnc2cc1OCC1(N)CC1 | – | paediatric recurrent refractory sarcoma | concentration not given, whole group | – | grade 3 Epistaxis | 0%
Cc1noc(C)c1Cn1cc(N2C(=O)CN(Cc3cccc(O)c3)C2=O)cn1 | – | CD-1 mouse, male, bone marrow | 2000 mg/kg/day, 24 h | – | PCE proportion | 53.6%
Cc1cc(C)c(CNC(=O)c2cc(Cl)c3c(c2C)O[C@@](C)([C@H]2CC[C@H](N(C)C)CC2)O3)c(=O)[nH]1 | – | human, relapsed/refractory NHL | concentration not given, all TEAEs, grade 5 | – | Hyponatraemia incidence | 0%
CC(=O)c1c(C)c2cnc(Nc3ccc(C4CCN(CCS(C)(=O)=O)CC4)cn3)nc2n(C2CCCC2)c1=O | – | human, dose-escalation trial, plasma | oral, 75 mg twice daily, day 21, multiple doses | – | AUC(0-t) | 2630 ng·h/mL
CN1CC[C@@H](c2c(O)cc(O)c3c(=O)cc(-c4ccc(C(F)(F)F)cc4Cl)oc23)[C@@H]1CO | refers to: Epistaxis | relapsed or refractory haematological malignancies | oral, dose not given, all arms | – | patients with adverse event | 10%
C[C@@H]1OC(=O)NN=C1c1ccc(-c2ccc(F)cc2)c(C(F)(F)F)c1 | phase I trial, refers to: Presyncope all grades | human patients | 20 mg loading then 1 mg daily | – | patients with adverse event | 0%
CC(C)(O)c1cc(Nc2cc(Oc3cn(C4CC4)nc3C3CCOCC3)ccn2)ccn1 | refers to: Diarrhea | patients with advanced cancer | oral | – | treatment-emergent adverse events | 0%
O.O.O.O.O.O.[Cl-].[Cl-].[Co+2] | – | rat female, urine | oral, 10 mg/kg single, day 1 | – | cobalt in urine | 4970 µg/L
COc1ccnc(C(=O)N[C@H]2COC(=O)[C@H](Cc3ccccc3)[C@@H](OC(=O)C(C)C)[C@H](C)OC2=O)c1OCOC(=O)C(C)C | – | mouse, in vivo | – | – | micronucleus test | negative
C[C@@H]1NC(=O)[C@H](CCCCNC(=O)CO/N=C/C(=O)NCCCC[C@@H]2NC(=O)[C@@H](Cc3ccccc3)NC(=O)[C@H](CC(=O)O)NC(=O)CNC(=O)[C@H](CCCNC(=N)N)NC2=O)NC(=O)CNC(=O)[C@@H]2CCCN2C(=O)[C@H](CCCCNC(=O)CO/N=C/C(=O)NCCCC[C@@H]2NC(=O)[C@@H](Cc3ccccc3)NC(=O)[C@H](CC(=O)O)NC(=O)CNC(=O)[C@H](CCCNC(=N)N)NC2=O)NC(=O)[C@H](CCCCNC(=O)[C@H](CCCCN)NC(=O)[C@H](Cc2ccccc2)NC(=O)CNC(=O)CN2CCCNCCNCCCNCC2)NC(=O)[C@H](CCCCNC(=O)CO/N=C/C(=O)NCCCC[C@@H]2NC(=O)[C@@H](Cc3ccccc3)NC(=O)[C@H](CC(=O)O)NC(=O)CNC(=O)[C@H](CCCNC(=N)N)NC2=O)NC(=O)CNC(=O)[C@@H]2CCCN2C(=O)[C@H](CCCCNC(=O)CO/N=C/C(=O)NCCCC[C@@H]2NC(=O)[C@@H](Cc3ccccc3)NC(=O)[C@H](CC(=O)O)NC(=O)CNC(=O)[C@H](CCCNC(=N)N)NC2=O)NC1=O [copper-64 labelled] | biodistribution after PET | mouse, U-87 MG tumour xenograft, liver | intravenous, 24 h | – | tissue uptake | 35 ± 3.07 %ID/g
O=C(Nc1ccccc1)C1CCN(C(=O)Oc2cccnc2)CC1 | – | healthy women | oral, 100 mg, 9 days | – | adverse event Malaise | 0%
CO[C@H]1C[C@@H]2CC[C@@H](C)[C@@](O)(O2)C(=O)C(=O)N2CCCC[C@H]2C(=O)O[C@H]([C@H](C)C[C@@H]2CC[C@@H](OC(=O)NCCOCCOCCOCCOCCOCCOCCOCCOCCC(=O)N3CCc4cc(Cn5nc(-c6ccc7oc(N)nc7c6)c6c(N)ncnc65)ccc4C3)[C@H](OC)C2)C[C@@H](O)[C@H](C)/C=C(\C)[C@@H](O)[C@@H](OC)C(=O)[C@H](C)C[C@H](C)/C=C/C=C/C=C/1C | – | patients with advanced solid tumours | intravenous, 6 mg weekly, grade 3 or higher | – | mucositis incidence | 8.3%
O=C1Nc2cc3[nH]nc(-c4ccncc4)c3cc2CN1Cc1ccccc1 | refers to: Dyspnea | patients with advanced solid tumours | intravenous, dose not given | – | patients with grade ≥3 TEAE | 7%
NCCCC[C@@H]1NC(=O)[C@@H](Cc2c[nH]c3ccccc23)NC(=O)[C@H](c2ccccc2)NC(=O)[C@@H]2C[C@@H](OC(=O)NCCN)CN2C(=O)[C@H](Cc2ccccc2)NC(=O)[C@H](Cc2ccc(OCc3ccccc3)cc2)NC1=O | – | healthy volunteers, female | 600 µg twice daily, 8.0 h, post hoc | – | placebo-corrected QTcF change | -0.9 ms
CC(C)C(=O)OC[C@H]1O[C@@H](n2ccc(NO)nc2=O)[C@H](O)[C@@H]1O | – | rat maternal blood dialysate | 5 ng/mL, 6 h, 10 °C, low QC concentration, with: NHC 25 ng/mL | – | autosampler stability | 101 ± 6.07%
O=C([O-])CN1CCN(CC(=O)[O-])CCN(CC(=O)NCC2CCC(C(=O)N[C@@H](Cc3ccc4ccccc4c3)C(=O)NCCCC[C@H](NC(=O)N[C@@H](CCC(=O)O)C(=O)O)C(=O)O)CC2)CCN(CC(=O)[O-])CC1.[177Lu+3] (stereo partly drawn) | 99mTc-DTPA plasma clearance | human | dose not given, after 3 cycles | baseline: before treatment | change in measured GFR | 18%
CCS(=O)(=O)Nc1ccc(Oc2ccc(F)cc2F)c(-c2cn(C)c(=O)c3[nH]ccc23)c1 | serious malignant neoplasm progression | human, relapsed/refractory AML | oral, dose not given | – | treatment-emergent adverse events | 5%
O=S(=O)(Nc1ccccc1)c1ccc(NC(=S)Nc2ccccc2)cc1 | refers to: RDW | male mouse, blood | oral, 5 mg/kg daily, 14 days | – | blood cell fraction | 16.2%
CC(C)NCCCC[C@@H]1NC(=O)[C@H](Cc2ccc(O)cc2)NC(=O)[C@H](Cc2ccccc2)NC(=O)CC[C@H](C(=O)N[C@@H](CCCCNC(C)C)C(=O)N[C@@H](CCCCNC(=O)[C@H](CCC(=O)O)NC(=O)[C@H](CCC(=O)O)NC(=O)[C@H](CCC(=O)O)NC(=O)CN2CCN(CC(=O)O)CCN(CC(=O)O)CC2)C(N)=O)NC(=O)CNC(=O)[C@H](Cc2ccc3ccccc3c2)NC(=O)[C@@H](CCCNC(=N)N)NC1=O [fluorine-18 labelled] | PET/CT | female CB17 SCID beige mice, subcutaneous MM.1S xenograft, tumour | intravenous | – | standardized uptake value | 1.95 ± 0.11 SUV
Clc1ccc(-c2ccccc2)cc1 | – | Sprague-Dawley rats, female, serum | inhalation, 23 µg/rat, 1 h after exposure | – | calcium | 11 ± 2 mg/dL
CCC[C@@](N)(CO)CCc1ccc(OCCCCCC(C)C)cc1 | – | dog, male hounds, plasma | oral capsule, 2.5 mg/kg, geometric mean | – | AUC(0-t) | 3 µM·h
C[C@]1(CO)Cc2ncn(-c3ccc(C#N)c(Cl)c3)c2C(=O)O1 | – | human, plasma | 2 mg single dose, geometric mean | – | AUC(0-inf) | 0.408 µM·h
C[C@@H](NC(=O)N1C(=O)[C@H](Cc2ccnc(N)c2)[C@H]1C(=O)O)C1CCCCC1 | – | healthy Chinese adult volunteers | continuous intravenous infusion, dose not given, 5.0 days, all doses pooled | – | abnormal liver function leading to discontinuation | 7.5%
Cn1ncc(-c2nc(N[C@H]3CC[C@H](N)CC3)ncc2Cl)c1CC1CC1 | HPLC-MS/MS | patients, plasma | oral, 8 mg, day 1 | – | AUC | 573 ng·h/mL
